# Results from different studies.
# Lines come from different studies, so protocols differ. Numbers after ± are the reported error.
# Cell line: HeLa
SMILES,read-out,technique,time,notes,IC50 [µM]
CC(=O)[O][Pt]([NH2])([NH2])([Cl])([Cl])[O]C(=O)CCC(C)C1CCC2C3CCC4CC(O)CCC4(C)C3CCC12C (stereo not drawn),cell growth or viability,MTT,72 h,,3.7
Cc1ccc2c(Cl)cc(Cl)c([O-])c2n1.Cc1ccc2c(Cl)cc(Cl)c([O-])c2n1.[Co+2].c1cnc2c(c1)ccc1cccnc12,cell growth or viability,MTT,48 h,,1.99
Cc1cc(C(=O)N2CCNCCNCCNCC2)c(O)c(C(=O)N2CCNCCNCCNCC2)c1,cell growth or viability,MTT,24 h,,> 10000
COc1cccc(N2C(=O)CS/C2=N\N=C\c2cccc3cc4ccccc4nc23)c1,cell growth or viability,MTT,48 h,,14.8
C[C@@H]1CC[C@@H]([C@@](O)(COCc2ccccc2)Cn2cnc3ccccc32)[C@H](OCc2ccccc2)C1,cell growth or viability,MTT,72 h,,6.85
O=C(Nc1cc(OCCN2CCCC2)c2ccccc2n1)c1cccc(C(=O)Nc2cc(OCCN3CCCC3)c3ccccc3n2)n1,cell growth or viability,ATP luminescence,72 h,,3
COc1ccc(COC[C@](O)(CNCc2ccc(F)cc2)[C@@H]2CC[C@@H](C)C[C@H]2OCc2ccc(OC)cc2)cc1,cell growth or viability,MTT,72 h,,3.62
CCOC(=O)/C=C1\S/C(=N\N=C\c2cccc3cc4ccccc4nc23)N(c2ccccc2)C1=O,cell growth or viability,MTT,48 h,,31.9
NC(=O)c1ccc(-c2ccccc2Cl)c2c3c([nH]c12)CCC(N)C3 (stereo not drawn),cell growth or viability,,,,0.02
CCC(=CCc1c(O)cc2c(c1O)C(=O)CC(c1cccc(OC)c1O)O2)CC (stereo not drawn),cell growth or viability,MTT,48 h,,20.9
CN(C)C(=S)NN=C(c1ccccn1)c1ccccn1,cell growth or viability,MTT,48 h,,2.23
C[C@@H]1CC[C@@H]([C@](O)(CNCc2cccc(F)c2)COCc2ccccc2)[C@H](OCc2ccccc2)C1,cell growth or viability,MTT,72 h,,2.78
c1ccc(-c2ccnc3c2ccc2c(-c4ccccc4)ccnc23)cc1,cell growth or viability,MTT,48 h,,> 50
CCC(=CCc1c(O)cc2c(c1O)C(=O)CC(c1cc(O)cc(OC)c1)O2)CC (stereo not drawn),cell growth or viability,MTT,48 h,,26.2
CCCC[N+]1=c2cc3c4cc2[O][Mn-2]1(=[C]=O)(=[C]=O)(=[C]=O)[n+]1ccc(cc1)C(=O)OCCOC(=O)c1cc[n+](cc1)[Mn-2](=[C]=O)(=[C]=O)(=[C]=O)([O]3)[N+]=4CCCC,cell growth,MTT,48 h,LED photolysed 1 h,11.6 ± 4.58
Cc1c(COc2cc(OCc3cccc(C#N)c3)c(CNC(CO)CO)cc2Cl)cccc1-c1cccc(OCCCCCCC(=O)NO)c1,cell growth or viability,CCK-8,48 h,,11.7
Clc1ccnc2c1ccc1c(Cl)ccnc12.[Co+2].[O-]c1c(I)cc(I)c2cccnc12.[O-]c1c(I)cc(I)c2cccnc12,cell growth or viability,MTT,48 h,,10.1
O=c1[nH]c(=O)n([C@H]2C[C@H](O)[C@@H](CO)O2)cc1F,cell growth or viability,,,,> 10

# For quick reference, copied from above:
SMILES,read-out,technique,time,notes,IC50 [µM]
NC(=O)c1ccc(-c2ccccc2Cl)c2c3c([nH]c12)CCC(N)C3 (stereo not drawn),cell growth or viability,,,,0.02
O=C(Nc1cc(OCCN2CCCC2)c2ccccc2n1)c1cccc(C(=O)Nc2cc(OCCN3CCCC3)c3ccccc3n2)n1,cell growth or viability,ATP luminescence,72 h,,3
